# Published values pooled from the literature.
# A part holds a random share of what one study measured. Changes are numbered by the printed parent chain.

# Block 1 — technique: RNA Bind-n-Seq; form: RNA; sample: in vitro; tested at: 365 nM; reference: no-protein control; direction: higher = stronger binding
# Target: RNA binding protein fox-1 homolog 2, RRM domain, GST-SBP tag (RBFOX2, Homo sapiens, UniProt O43251-10, residues 100-194)
# Setting: natural RNA segment, single round, ends assumed
# Residues (chain): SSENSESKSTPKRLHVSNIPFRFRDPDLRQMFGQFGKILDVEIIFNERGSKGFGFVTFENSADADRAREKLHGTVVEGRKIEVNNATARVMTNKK
Sequence,RBNS enrichment (R)
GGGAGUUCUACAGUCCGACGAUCCAUCGUACCUUCAGUUUAGGCUGUUUUCAUGACCUCACAUCUGUGUAGCACAAAGGGUGUUAUCUUCCUAUAGCAGAUCAACAGUGGCAGCUCACAGUACCAGCCAGCUUUGGAAUUCUCGGGUGCCAA,0.282
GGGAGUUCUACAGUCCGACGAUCGACUCCGUCCCCAAGGGCCAGGCCGGACUGUCCAGACCUGCAGGCUCCGGCCAGAAGCGCCGCUCCGGAAGCGUCCUGCCGCCUCUCGCUUUGCCAGCCUGGGAGCCGCGUGGAAUUCUCGGGUGCCAA,0.365
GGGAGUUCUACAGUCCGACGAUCACCCAGUGAGGCCUUAUUCCUCCCUUCCCCCCAAAACUGACACCUUUGUUAGCCACCUCCCCACCCACAUACAUUUCUGCCAGUGUUCACAAUGACACUCAGCGGUCAUGUGGAAUUCUCGGGUGCCAA,0.543
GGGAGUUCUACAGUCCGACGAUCGUUUUAAGCAUUUAAUAUAAAACAUUAUAACAUUAGUUUGUACUUUUUGCUAAUAGUUUGAGCACAAAUUGAAGCCCAGAAAUACUGAAAGCUUAUUAUUUUAUAUCCUUUGGAAUUCUCGGGUGCCAA,1.01
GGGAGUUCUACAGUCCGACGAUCUCGUGGUUGGGAUUAGACCUGUUUGGAAACAGCUGCUGUCAGUGAUGCUCCGGUGUGCCAAGCCCCAGCUCCGAUGUCUGCUUUGUGCAAUUUGCCUUUACCUCACCAAAUGGAAUUCUCGGGUGCCAA,0.247
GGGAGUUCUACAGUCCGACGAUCCAGAGAAGGAGGUGGGGGCUGUGAAUUGGUUGUUAGUUUCUGAAUUUUACCAAAUAAAGUAGAAUCUAAGAAGAAACUCUUAUUGGUCUCUGCUUUUCUCCUCUGCCCACUGGAAUUCUCGGGUGCCAA,0.349
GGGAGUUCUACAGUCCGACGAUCAUUUACAAUGCAGAAUUUUUUGAGUAAUUCUAGCUUUCAAAAAUUAGUGAAGUUCUUUUACUGUAAUUGGUGACAAUGUCACAUAAUGAAUGCUAUUGAAAAGGUUAACAUGGAAUUCUCGGGUGCCAA,0.5
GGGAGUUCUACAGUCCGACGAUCUCAUGAAAUGGUGGGUCCUUGGAAACCUCCUUUCCGUUCAGCUCUGCCUCUGUUCUUUCAACUCCUUUGAGGCUCAAAAAAAACACAAAGAUCAGAAGCCUUCAGAUAGAUGGAAUUCUCGGGUGCCAA,0.395
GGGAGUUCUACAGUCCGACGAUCAAGACCCCCAUCGCUACAAAAAAUACAAAAGUUAGCCAGGUACAGUAGUACACACCUGUAGUCCAAGCUACUUGGGAGGCUGAAGUGGGAGGAUCAUUUGUGCCCAGGUUUGGAAUUCUCGGGUGCCAA,0.78
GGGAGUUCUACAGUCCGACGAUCCAACUCCUUGUCGUCCUAAUCUGCAAACCCAGACCCAGACCCUUUCCGCAGCCGCCUCCUCUUCCUCCAGAGGCAACAUUCCUUAUUCACCAACUAGUCUCAAAAGAUUGUGGAAUUCUCGGGUGCCAA,0.541
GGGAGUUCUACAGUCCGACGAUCUACUACUGAGAAAGGAACUAGGUAGUUUGGUGAAUGAAAGAAAACAAAAUUUGAAGAUAUUAUGUAGUGGUCAAGGACCACUAAUAUUUGGGGAGUGUGUUUUGUCUGUUUGGAAUUCUCGGGUGCCAA,1.28
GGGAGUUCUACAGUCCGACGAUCGGUUUUACUAUUAUGGUUUGAAGUGGAGUCUCAUGACCUCUCAGAAUAAGGUGUCACCUCCCUGAAAUUGCAUAUAUGUAUAUAGACAUGCACACGUGUGCAUUUGUUUGUGGAAUUCUCGGGUGCCAA,0.437

# Block 2 — target: human cyclin B1; effect on: peptide binding; technique: yeast competitive growth sequencing; form: peptide; organism: Saccharomyces cerevisiae; strain: cyclin B1-Cln2 fusion; tested at: concentration not given; setting: peptide tiling library; direction: direction not given
Molecule,binding enrichment score
RVSGLLSWTLSRVLWL,-0.112
RQVRRDLFAF,-0.401
NESHLDKEHDAVEVAD,0.272
KVKRRLDLDIDGLQKE,1.06
KVRRNLFNQELLSP,0.00306
LKGRRLVFDN,-0.336
IFNKPECGRVQRAIFQ,0.525
HRRRLLFACSPPPASQ,-0.0173
SPPRGRRLFPPGPAGF,-0.375
ASVLSKPIFCFVKD,-0.176
KRRLDLETDHQY,0.399
KSKHEEEEWTDDDLVE,-0.31
GPVKLEFDVSDGAT,0.0695
TSSAQRRLEIPSGGAD,0.0856
ELGMEHCEKFEISETS,0.426
DSGFCLDSPGPLDSKE,-0.333

# Block 3 — target: NFE2, bZIP domain (human); technique: DHFR protein complementation; sample: yeast; reference: wild-type JUN-FOS pair; direction: higher = stronger binding
# Setting: single substitutions, most at no-binding floor
# Starting sequence: JUN, bZIP domain (human); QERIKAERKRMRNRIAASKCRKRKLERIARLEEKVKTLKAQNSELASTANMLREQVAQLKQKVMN; partner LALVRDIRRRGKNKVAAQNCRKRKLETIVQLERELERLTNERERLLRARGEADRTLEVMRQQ
Variant,binding fitness [natural log]
N42V,-1.34
I28C,-1.56
L59R,-1.5
R30F,-1.3
Q55E,-1.49
R30K,-1.28
A40C,-1.26
T37V,-1.53
L52Y,-1.51
R53Q,-1.48
L31W,-1.54
A46I,-1.39
V35Q,-1.53
L52R,-1.5
M51Q,-1.43
E33W,-1.49
V56W,-1.52

# Block 4 — technique: protein-binding microarray; form: double-stranded DNA, one strand shown; sample: in vitro; tested at: 0.8 µM; setting: whole 60-bp probe, no competitor; direction: higher = stronger binding
# Target: Centromere-binding protein 1, full length, N-terminal tag (CBF1, Saccharomyces cerevisiae, UniProt P17106, residues 1-351)
# UniProt P17106, sequence (whole entry, looked up): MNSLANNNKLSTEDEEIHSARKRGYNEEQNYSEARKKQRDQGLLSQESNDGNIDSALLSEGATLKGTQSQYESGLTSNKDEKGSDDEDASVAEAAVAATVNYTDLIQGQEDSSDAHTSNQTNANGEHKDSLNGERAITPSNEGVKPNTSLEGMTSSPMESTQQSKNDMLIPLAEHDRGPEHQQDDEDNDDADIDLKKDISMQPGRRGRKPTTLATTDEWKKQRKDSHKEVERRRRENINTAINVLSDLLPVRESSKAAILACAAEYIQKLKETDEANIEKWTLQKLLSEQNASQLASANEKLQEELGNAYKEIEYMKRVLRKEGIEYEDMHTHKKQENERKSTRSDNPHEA
Sequence,fluorescence intensity [a.u.]
CTATTTGTTCATGAGGCGGTGACGTAAAATTCGTTCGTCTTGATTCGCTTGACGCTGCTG,607
CTAGAATAGTCATCAGGTGTAATGGAAGCTAATTTCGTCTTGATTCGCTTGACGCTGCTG,725
CTAGAGGAATTTCGTAACGTGTATAGAATCAAATTCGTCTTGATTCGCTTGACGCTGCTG,624
CTAATTACACTCGCGAACGTGCGTCCGGGATGATTCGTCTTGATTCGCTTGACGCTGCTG,528
CTACATGGGTTAAATTTTACATCAGATTTTTGATTCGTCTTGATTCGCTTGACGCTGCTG,534
TGTACGAAGCTATGTCACATCGTTATAGTAGTTAGGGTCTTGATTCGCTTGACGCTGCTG,561
CTAAGCTTTGTTCACATGGTGAAAACAATAGCGTTCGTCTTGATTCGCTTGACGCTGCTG,802
GAAAAGTCCTTTAATCTCAGCTGATATCGTCCTTAGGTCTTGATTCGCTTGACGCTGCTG,586
GAAGACGTTTATGTGCACGTTTACGTTTGTTTTTAGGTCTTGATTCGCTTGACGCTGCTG,646
CTAAGGATCGTCCGTGACATGAGTGTTTTTTTTTTCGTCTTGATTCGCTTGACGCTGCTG,599
GAAATGAACTTGTACGTCACCACTTTGTGCGCATAGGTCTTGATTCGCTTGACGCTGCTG,531
GAAAGTATAATAAGTAGGATGGTAATCACATGATAGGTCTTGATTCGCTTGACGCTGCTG,2760
GAAATGCAATTCAGTCACGTTCCACACAGTTTGTAGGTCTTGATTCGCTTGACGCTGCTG,2400
GAATTCTTTTCGGGTGATGTCACTTAAAAACTCTAGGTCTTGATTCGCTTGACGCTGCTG,528
TGTACGAAGCTATGACATGACGCTATAGTAGTTAGGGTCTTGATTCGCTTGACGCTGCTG,520
GAATATAATCACATTTCAAATATATCACGTGTTTAGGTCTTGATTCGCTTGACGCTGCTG,12900
GAAAGACAAAATATCAACGTGTTTTATTTATACTAGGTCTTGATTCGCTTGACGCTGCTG,592
CCTAACTACTATAGTCACCAGTCATAGCTTCGTACAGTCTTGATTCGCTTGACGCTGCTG,567
GAAATGGGTGTATATCACGTGATATATTATGCTTAGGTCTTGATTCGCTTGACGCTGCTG,38800
CCTAACTACTATAAACATGTGCTATAGCTTCGTACAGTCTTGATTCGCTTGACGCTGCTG,753
GAACAGCCATGGCATCATGCGCTACCGCCGGATTAGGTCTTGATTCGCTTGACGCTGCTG,504
GAAGTGACGCTGTTTCATGAGACTTTAGCCCTTTAGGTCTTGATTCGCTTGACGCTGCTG,495
CTACAGCGTGCTGCTGATGTCAAAGAATTGGGATTCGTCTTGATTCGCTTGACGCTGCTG,516
CTAAGGCCCTTAGATCTCACATGATGCTTGACTTTCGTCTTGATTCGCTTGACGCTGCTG,981

# Block 5 — technique: protein binding microarray; form: double-stranded DNA, one strand shown; sample: in vitro; tested at: not given; reference: not given; direction: higher = stronger binding
# Target: Histone acetyltransferase KAT6A, winged helix 1, GST fusion (KAT6A, Homo sapiens, UniProt Q92794, residues 1-85)
# Setting: 8-mer, flanks averaged, mean of 2 arrays, mostly near background
# Residues (chain): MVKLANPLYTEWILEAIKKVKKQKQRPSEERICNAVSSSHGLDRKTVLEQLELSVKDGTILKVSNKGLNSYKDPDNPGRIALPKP
Sequence,E-score
CCTTCAAC,-0.301
ACTCCCTA,-0.155
CATCATGC,0.0877
ATTCGTAC,-0.0833
ACCTTGCT,-0.241
CATGCCGG,0.345
GAAACGGA,0.125
AGCCGCAG,0.255
TAGTCTGA,-0.187
AGGATCAC,-0.171
GGGTTACC,0.179
GAAACGAA,-0.182
ACCGGTAA,0.276
GGTACCCA,-0.114
CCTAGCTC,-0.103
GAGCCTTA,-0.106
AGATAGAT,-0.0596
AAGTTATA,-0.0992
AGTATTGA,-0.0376
CTGCGTTC,-0.0728
CGGAGCGC,0.413
GAGGTGGA,-0.208
CACTCGTA,-0.0149
GGATTCCA,-0.037
CCGGTAGA,0.263

# Block 6 — technique: protein-binding microarray; form: double-stranded DNA, one strand shown; sample: in vitro; tested at: 940 nM top; setting: 60-bp whole probe; added: salmon DNA 0.4 mg/ml; reference: random background probes; direction: higher = stronger binding; shared flanks, not repeated: GCCTAGCAC … GTCTTGATTCGCTTGACGCTGCTG
# Target: Interferon regulatory factor 5, full length, phosphomimetic (IRF5, Homo sapiens, UniProt Q13568-2, residues 1-514, S451D/S453D/S456D/S462D)
Sequence,fitted relative affinity [z-score]
TCAAATCCCCTTCTACTACTGTGCTAG,0.669
GACGGACTGCATTTCCTGACGTGCTAG,-0.733
TCATACCTCATCTTCCTCACTGTGCTA,1.42
TTAGGTAGCGGTCTCGGTTAGTGCTAG,1.99
TTAGGTATCAGTTTCGGTTAGTGCTAG,9.5
TTAGGACTAGACTTTCGGTTAGTGCTA,2.22
GACGGTTCCGTTTTCGGGACGTGCTAG,1.05
TTAGGTTTCGACTTTCGATTAGTGCTA,8.73
GAGGGTTTCGGGTATCGGGACGTGCTA,7.32
GACAGTCTCGGTCTCGGGACGTGCTAG,5.87
GACGGTATCCTACTGCTGGCGTGCTAG,0.0814
AGGACTCGAATCCTGCAGGGGTGCTAG,-0.308
TTAGGTTCCGGTTTCCGTTAGTGCTAG,4.55
GACGGTTTCGGGATCGGGACGTGCTAG,7.51
TTAGAACTGGTGTTTCGATTAGTGCTA,1.81
GACGGTTCGGGTTTCGGGACGTGCTAG,2.69
TTAGATTTCGCGACTGGATTAGTGCTA,0.0534
TCAGTGCTCATCTGTCATACTGTGCTA,0.0892
GACGATTTCGGGTATCGAGAAGTGCTA,1.47
GACGGATTCGGACTGGGGACGTGCTAG,-0.317
CTCAAGATTCCTCTCACCTCGTGCTAG,0.539

# Mixed results
Substance,target,test,test system,setting,how to read,quantity,value
"PhoQ, residues 284 288 289 292 302 303 NLCILV","PhoP, residues 12 14 15 18 19 TQAIL (Escherichia coli, UniProt P23836)","Sort-seq, refers to: YFP reporter",E. coli,"PhoQ-PhoP variant library, added: 10 µM Mg2+","reference: high Mg2+ state, higher = stronger signaling",fold induction,33.2
